Measured values pooled from the literature.
A part holds a random share of what one study measured.

Series 1
Target: Phosphate system positive regulatory protein PHO4, full length, GST-tagged (PHO4, Saccharomyces cerevisiae, UniProt P07270, residues 1-312)
Method: competition protein-binding microarray
Form: double-stranded DNA, one strand shown
Sample: in vitro
Concentration: 2 µM
Setting: whole 60-bp probe, lowest competitor level
Together with: Cbf1 competitor, 0.05 µM
Direction: higher = stronger binding
Target sequence (chain): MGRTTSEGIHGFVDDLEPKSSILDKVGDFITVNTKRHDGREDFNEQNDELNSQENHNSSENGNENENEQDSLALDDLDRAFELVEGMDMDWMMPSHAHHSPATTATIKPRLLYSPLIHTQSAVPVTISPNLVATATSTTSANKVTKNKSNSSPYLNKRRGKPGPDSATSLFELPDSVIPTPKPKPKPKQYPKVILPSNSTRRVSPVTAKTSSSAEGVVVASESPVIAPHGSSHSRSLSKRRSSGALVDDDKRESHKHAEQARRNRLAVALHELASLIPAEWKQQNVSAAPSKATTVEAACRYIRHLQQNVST
Oligonucleotide | fluorescence intensity
AAATTACTAAGTTGTCACAGCACTTACCCCGTATGAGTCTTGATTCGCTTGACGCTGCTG | 3990 a.u.
CGTCCTAGTGATTGTCACAGAACTTCCATGAGGAAGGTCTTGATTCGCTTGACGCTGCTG | 4980 a.u.
CGTCCTAGTGATTGTTCCGTGGGTGCCATGAGGAAGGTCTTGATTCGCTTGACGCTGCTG | 7200 a.u.
TTCTGGAACAATTATCATGTTTCTCATCTGGGTTCTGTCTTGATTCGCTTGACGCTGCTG | 3950 a.u.
ACCCGGCATAGAAAGATCGTGATTGTAACGCCCTTGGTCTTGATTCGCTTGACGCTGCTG | 5190 a.u.
CTTCTGTAAATTTGTCACTAGACTTGACGCGCCCCGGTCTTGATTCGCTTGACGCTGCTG | 3260 a.u.
CGTCCTAGTGATTGGAAAGTGGGTGCCATGAGGAAGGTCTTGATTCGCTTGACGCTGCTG | 6890 a.u.
CGGACGCCCACTCCTCACGGGAATAAGTTAGAATGTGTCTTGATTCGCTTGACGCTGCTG | 6360 a.u.
AATGTGTCGTTCGAACTCGTGGTTACGTCGCCTGGAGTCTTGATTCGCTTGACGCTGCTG | 8890 a.u.
GTCTTGTCTCATTGTCACAGAACTTTCCCCACTTCAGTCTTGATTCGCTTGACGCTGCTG | 4480 a.u.
CAAGCATAGCGTATACACGTGCAAACACAAGCATACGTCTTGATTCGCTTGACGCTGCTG | 17200 a.u.
TTCTAGGTATTGATGCAGGTGAGGAAAAGGAAAAAGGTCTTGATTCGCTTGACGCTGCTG | 4120 a.u.
CTAACGAAGGTTTCCCACGTGTTTTACAAGCCAAGTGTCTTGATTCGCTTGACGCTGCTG | 17800 a.u.
GAACAAGATTTTTTGCACGTGGTGAGGATGATGAGGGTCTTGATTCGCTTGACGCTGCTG | 20700 a.u.
TCAATCTTTGTTCGTCAGGTGGGATACCTTCCTTGTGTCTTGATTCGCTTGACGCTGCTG | 4590 a.u.
GATATTGTACGTATTCACGTGTGAATTGCTAAAGAGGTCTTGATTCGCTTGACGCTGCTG | 16600 a.u.
TTTAAAATGAGTGCGTAACCGTACTTTCCTAAAAATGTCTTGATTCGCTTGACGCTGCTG | 4670 a.u.
AAATTACTAAGTTGAGGTGTGGGTGACGCCGTATGAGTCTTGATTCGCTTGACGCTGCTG | 5800 a.u.

Series 2
Target: RING finger protein unkempt homolog, zinc fingers 1-6, GST-SBP tag (UNK, Homo sapiens, UniProt Q9C0B0, residues 30-357)
Sequence of UniProt Q9C0B0 (30-357, looked up): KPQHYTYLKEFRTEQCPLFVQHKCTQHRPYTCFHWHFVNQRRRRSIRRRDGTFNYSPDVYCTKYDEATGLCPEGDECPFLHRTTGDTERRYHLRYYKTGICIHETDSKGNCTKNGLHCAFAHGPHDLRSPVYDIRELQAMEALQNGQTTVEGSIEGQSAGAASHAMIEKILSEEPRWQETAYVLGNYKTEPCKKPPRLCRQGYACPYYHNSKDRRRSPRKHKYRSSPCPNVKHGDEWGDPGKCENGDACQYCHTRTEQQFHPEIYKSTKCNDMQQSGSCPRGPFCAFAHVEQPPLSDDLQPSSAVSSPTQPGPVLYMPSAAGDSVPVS
Method: RNA Bind-n-Seq
Form: RNA
Sample: in vitro
Concentration: not given
Setting: RNA with constant flanks, ends assumed
Relative to: input RNA pool
Direction: higher = stronger binding
Oligonucleotide | bound/input enrichment
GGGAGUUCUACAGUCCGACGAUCCUUCCGGGAGGUGCUUGUGUGCCUGGUGCGGGAGCUACGGGGCCCAGGGAUUGUGUUUAAAGCCGUGCUUCUACCAACAUGUCCCGUGGUUCCAGCGCCGGUUUUGACCGCCACAUUACCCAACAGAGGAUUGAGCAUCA | 0.109 ratio
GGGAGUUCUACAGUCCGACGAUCAUUGCAACAAAUGGAGAAAGUGCUGUAGUGCAAUUACCAAAAAAUGGCCCCAUUUAUGAUGCCGUUUGGAAUUCUAGUUCUACUGAGUUUUGUGCUGUAUAUGGUUUUAUGCCUGCCAAACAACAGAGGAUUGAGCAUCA | 0.132 ratio
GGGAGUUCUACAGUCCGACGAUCGAACCUGUUGCUGAUGAAGAAGAGGAAGACAGUGAUGAUGAUGUUGAACCUAUUACUGAAUUCCGAUUUGUGCCUAGUGAUAAAUCAGCGUUGGAGGCAAUGUUCACUGCAAUGUGCGAACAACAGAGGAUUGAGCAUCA | 0.175 ratio
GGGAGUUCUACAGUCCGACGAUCCGCGUCCCCUUCUCGCUCCUGCGGGGCCCCAGCUGGGACCCCUUCCGCGACUGGUACCCGCACCGCCGCCUCUUCGACCAGGCCUUCGGGCUGCCCCGGCUGCCGGAGGAGUGGUCGCAGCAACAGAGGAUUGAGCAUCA | 0.163 ratio
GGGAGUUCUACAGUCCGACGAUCUUACCGGCUGAAGAAGGAAAAACCUUGCUGGAACUUGUGAUUGAGCAGUUUGAAGACUUGCCCGUCCGGAUUUUAUUACUGGCAGCAUGUAUAUCUUUUGUUUUGGCUUGGUUUGAAGAACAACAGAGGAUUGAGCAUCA | 0.219 ratio
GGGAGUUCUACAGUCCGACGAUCUUCCACUUUUUUUUCCUUCAUGGAGACUGUUUGUUUGGCUUUCUUCCAUUGUUGUUUUUGCCGCAUUUAUUUCAGAAAUGUGUAUUUCCAUAAUCCAGAGGUUGUAAAACCACUAGUGUUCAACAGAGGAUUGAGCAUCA | 0.327 ratio
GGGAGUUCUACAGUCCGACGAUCCCCACUGUCCCAUAUAUAUUCCUUUGUUGUUCUUGAGUGGACCAGGUUACACACUUAAACUCCGGGAGGUAAGACAAGAGUCCCAGUUAAAAUAUCUAUGUCCUAGAGAAGCAUCCACUUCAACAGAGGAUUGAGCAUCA | 0.659 ratio
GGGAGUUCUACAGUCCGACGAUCUUUGAUACAGUCAAAAGUGUUCUCGACAAAGACCGAAAAGAAGAUGAUACAAAUGAAUUUGUCCGUGCUGUGUGCUGGAGGGCACUACCAGAUGGGGAGUCCAAUGUGCUGAUUGCUGCUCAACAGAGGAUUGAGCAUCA | 0.344 ratio

Series 3
Target: Prothrombin, mature alpha-thrombin (F2, Homo sapiens, UniProt P00734)
Method: aptamer microarray, sandwich
Form: DNA with 2'F-ANA
Sample: in vitro
Concentration: 200 nM
Setting: whole 15-mer aptamer, many near background
Together with: Cy3 exosite-II aptamer, 400 nM
Direction: higher = stronger binding
Oligonucleotide: GGTTGGTGTGGTTGG
Modification | mean fluorescence intensity [a.u.]
2'F-ANA at 1 3 7 8 9 12 15 | 644
2'F-ANA at 1 2 3 4 6 7 11 12 | 240
2'F-ANA at 2 5 9 11 12 13 14 | 113
2'F-ANA at 1 2 3 6 7 9 10 11 15 | 59.6
2'F-ANA at 1 6 7 8 11 12 13 | 280
2'F-ANA at 1 6 9 11 13 14 15 | 53
2'F-ANA at 1 2 6 10 11 13 | 48.7
2'F-ANA at 2 3 9 10 12 15 | 419
2'F-ANA at 1 2 3 4 5 6 7 8 10 11 14 15 | 54
2'F-ANA at 5 7 12 14 | 50.8
2'F-ANA at 1 6 7 8 9 10 11 13 15 | 60.7
2'F-ANA at 2 5 6 8 10 11 14 15 | 50
2'F-ANA at 3 4 5 6 7 8 13 14 | 55
2'F-ANA at 1 2 3 5 9 10 12 | 53.3
2'F-ANA at 2 3 6 9 11 14 | 379
2'F-ANA at 4 6 7 8 11 14 | 89.3
2'F-ANA at 2 4 6 10 11 14 | 56.7
2'F-ANA at 1 2 5 6 9 11 12 13 | 65.2

Series 4
Target: Histone acetyltransferase KAT6A, winged helix 2, GST fusion (KAT6A, Homo sapiens, UniProt Q92794, residues 85-181)
Method: protein binding microarray
Form: double-stranded DNA, one strand shown
Sample: in vitro
Concentration: not given
Setting: 8-mer, flanks averaged, mean of 2 arrays, mostly near background
Relative to: not given
Direction: higher = stronger binding
Target sequence (chain): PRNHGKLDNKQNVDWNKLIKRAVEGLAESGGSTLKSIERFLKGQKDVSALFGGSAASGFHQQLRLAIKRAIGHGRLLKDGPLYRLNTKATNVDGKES
Oligonucleotide | E-score
ATAGCTCA | -0.0794
CAGTGTAG | 0.0934
CCGAGCCC | 0.151
TAGATATA | -0.179
AGAGTTCG | 0.000885
AGGAGGGA | -0.0319
GCCCTGAC | -0.0648
TGCCGAAA | 0.114
ACCAAGGT | -0.0462
AGTGAAAA | 0.148
ATGTAGGA | -0.188
ATACATCC | -0.059
ACCTTCGA | -0.0642
CATCTTCA | -0.0633
AGTCCGTC | -0.126
GGCTAGGA | -0.0151
CTTGTGAC | -0.0321
GGCCGGGA | 0.287
AGTAAGTC | -0.256

Some of these lines once more (series 3):
Modification | mean fluorescence intensity [a.u.]
2'F-ANA at 1 2 3 4 5 6 7 8 10 11 14 15 | 54
2'F-ANA at 5 7 12 14 | 50.8
2'F-ANA at 1 6 7 8 9 10 11 13 15 | 60.7
2'F-ANA at 2 5 6 8 10 11 14 15 | 50
2'F-ANA at 3 4 5 6 7 8 13 14 | 55
2'F-ANA at 1 2 3 5 9 10 12 | 53.3
2'F-ANA at 2 3 6 9 11 14 | 379
2'F-ANA at 4 6 7 8 11 14 | 89.3
